Results pooled from the literature.
Parts stem from different laboratories: compare values within a part only.

Series 1 — method: RNAcompete; molecule type: RNA; medium: in vitro; concentration: 20 nM; notes: 7-mer, probes averaged, single round; relative to: mean of 7-mers; direction: higher = stronger binding
Target: PABPC1L2, full length, GST fusion (mouse, UniProt A0ABA7IW68)
Residues (chain): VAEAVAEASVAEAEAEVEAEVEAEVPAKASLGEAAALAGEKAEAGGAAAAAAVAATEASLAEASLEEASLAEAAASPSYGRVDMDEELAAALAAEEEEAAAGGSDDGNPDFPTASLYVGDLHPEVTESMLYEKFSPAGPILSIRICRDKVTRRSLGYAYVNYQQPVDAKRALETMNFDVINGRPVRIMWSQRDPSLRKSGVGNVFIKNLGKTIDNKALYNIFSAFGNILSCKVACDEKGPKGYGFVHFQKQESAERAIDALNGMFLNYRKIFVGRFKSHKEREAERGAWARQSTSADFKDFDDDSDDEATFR
With `UUAGCUU` the 7-mer Z-score was -0.253.
`CGGUUCC` has a 7-mer Z-score of -0.18.
With `UCUAGCC` the 7-mer Z-score was -0.253.
For `CGGAUUA`, the 7-mer Z-score was 0.0877.
`ACCCGGC` has a 7-mer Z-score of -0.302.
`AAUGUGA` gave a 7-mer Z-score of 0.193.
For `AUGCUGU`, the 7-mer Z-score was -0.345.
`CACGAAG` gave a 7-mer Z-score of -0.0899.

Series 2 — method: competition protein-binding microarray; molecule type: double-stranded DNA, one strand shown; medium: in vitro; concentration: 2 µM; together with: Pho4 competitor, 0.05 µM; direction: higher = stronger binding; shared flanks, not repeated: … GTCTTGATTCGCTTGACGCTGCTG
Target: Centromere-binding protein 1, full length, His-tagged (CBF1, Saccharomyces cerevisiae, UniProt P17106, residues 1-351)
Sequence of UniProt P17106 (whole entry, looked up): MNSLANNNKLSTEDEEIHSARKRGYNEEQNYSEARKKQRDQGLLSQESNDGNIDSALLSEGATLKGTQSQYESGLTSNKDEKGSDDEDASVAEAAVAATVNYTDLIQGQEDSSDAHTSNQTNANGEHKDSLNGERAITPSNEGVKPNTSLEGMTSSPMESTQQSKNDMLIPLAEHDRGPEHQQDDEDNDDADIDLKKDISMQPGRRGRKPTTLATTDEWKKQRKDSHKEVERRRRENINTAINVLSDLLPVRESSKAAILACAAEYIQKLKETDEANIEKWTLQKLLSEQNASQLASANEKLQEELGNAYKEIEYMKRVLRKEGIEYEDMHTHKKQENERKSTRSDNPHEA
Notes: whole 60-bp probe, lowest competitor level
The fluorescence intensity of `TTGCTCACTTTCTAATACGTGCAAACCTTTACAAGC` is reported as 71.9 a.u.
`GTCTTGTCTCATTTTCACGTGCTGTTCCCCACTTCA` gave a fluorescence intensity of 988 a.u.
For `CGACTTTTTTCTTTTCACCTGCAGCTTGAGCCAAAC`, the fluorescence intensity was 85.1 a.u.
With `TTATTTCCCTTCCCTCGCGTGCCAGTCGGCGATCTC` the fluorescence intensity was 59.6 a.u.
The fluorescence intensity of `TGCGCAACAACTTGCGTCGTGGGTGTATGTCTAGAA` is reported as 53.1 a.u.
`AAGGTGGAACGATTCCACGTGGATTGTCTAAACTGT` has a fluorescence intensity of 466 a.u.
With `CCTGACAACAAGAAGAGGATTGCAGAGCTTTTAGAC` the fluorescence intensity was 73.8 a.u.
`TTTCTCTTTGAGGTTCACGTTCACTTCTGCTACCAT` has a fluorescence intensity of 77.4 a.u.

Series 3 — method: RNA Bind-n-Seq; molecule type: RNA; medium: in vitro; concentration: 200 nM; notes: whole 134-nt RNA, ends assumed; together with: 150 mM KCl; relative to: input library; direction: higher = stronger binding
Target: Fragile X messenger ribonucleoprotein 1, C-terminal low-complexity region (Fmr1, Mus musculus, UniProt P35922)
Shared flanks, not repeated: GGGAGUUCUACAGUCCGACGAUC … UGGAAUUCUCGGGUGUCAAGG
`UUCAACAACUAGUACUGCUUCAAAUUAUCCAGAUGUGUUAACAAGGCCUUCUCUUCAUCGGAGCCAUCUGAAUUUUUCCAUGUUGGAAUC` gave a log2 enrichment of 0.267.
`CACAGACAACACGCAACCACACAGACACAGAGGGAAGGGGUUGGGAUGGGGACAGGGUGCACAGCAGGGCGGGGUAGGACCCCAGCCCCU` has a log2 enrichment of 1.33.
With `UGGGCAUUUUGGUGGAGACGAUGAGCACCAACGACACGAUCGUCAGUGGCACGCUGCCCCAGCGCAUGGCGUCCUGCCUGGAGGUGCUGG` the log2 enrichment was -1.2.
For `GUCCUGUGCUACACAUCGUAUGUACCGAAUCGGUUUUUUGGGGUUUUUUGGUUUUUUGGAAAGUAUUAUGUUACGCCGUUCGGAUCUGCA`, the log2 enrichment was -0.517.
`CACAGACAACACGCACCCACACAGACACAGAGGGAAGGGGUUGGGAAAGGGACAGGGUGCACAGCAGGGCGGGGUAGGACCCCAGCCCCU` has a log2 enrichment of 1.01.
With `UCAAGUCCUGUGCUACACAUCGUAUGUACCGAAUCGGGGUUUGGGUUUGGUUUGGAAAGUAUUAUGUUACGCCGUUCGGAUCUGCACUUC` the log2 enrichment was -0.00225.
`UCCUGUGCUACACAUCGUAUGUACCGAAUCGGGGAAAAAAGGAAAAAAGGAAAAAAGGGGAAAGUAUUAUGUUACGCCGUUCGGAUCUGC` gave a log2 enrichment of -0.33.
`UGGGAGGCGGAUUUUGUUUAUUUUUUUAGCUCAUUUCCAGGGGUGGGAAUUUUUUUUUAAUAUGUGUCAUGAAUAAAGUUGUUUUUGAAA` has a log2 enrichment of 0.14.

Other studies, line by line
Under binding, `YALTEYHAM` is recorded as “inactive” (HLA class I histocompatibility antigen, A alpha chain, allele A*80:01 (Homo sapiens, UniProt P04439); peptide-MHC binding; peptide; concentration not given).

A few entries again (series 3):
`CACAGACAACACGCAACCACACAGACACAGAGGGAAGGGGUUGGGAUGGGGACAGGGUGCACAGCAGGGCGGGGUAGGACCCCAGCCCCU` has a log2 enrichment of 1.33.
With `UGGGCAUUUUGGUGGAGACGAUGAGCACCAACGACACGAUCGUCAGUGGCACGCUGCCCCAGCGCAUGGCGUCCUGCCUGGAGGUGCUGG` the log2 enrichment was -1.2.
For `GUCCUGUGCUACACAUCGUAUGUACCGAAUCGGUUUUUUGGGGUUUUUUGGUUUUUUGGAAAGUAUUAUGUUACGCCGUUCGGAUCUGCA`, the log2 enrichment was -0.517.
`CACAGACAACACGCACCCACACAGACACAGAGGGAAGGGGUUGGGAAAGGGACAGGGUGCACAGCAGGGCGGGGUAGGACCCCAGCCCCU` has a log2 enrichment of 1.01.
